# Earlier results that unrelated publications cite.
# Ahr: Aryl hydrocarbon receptor (Ahr, Rattus norvegicus, UniProt P41738)
# UniProt P41738, sequence (whole entry, looked up): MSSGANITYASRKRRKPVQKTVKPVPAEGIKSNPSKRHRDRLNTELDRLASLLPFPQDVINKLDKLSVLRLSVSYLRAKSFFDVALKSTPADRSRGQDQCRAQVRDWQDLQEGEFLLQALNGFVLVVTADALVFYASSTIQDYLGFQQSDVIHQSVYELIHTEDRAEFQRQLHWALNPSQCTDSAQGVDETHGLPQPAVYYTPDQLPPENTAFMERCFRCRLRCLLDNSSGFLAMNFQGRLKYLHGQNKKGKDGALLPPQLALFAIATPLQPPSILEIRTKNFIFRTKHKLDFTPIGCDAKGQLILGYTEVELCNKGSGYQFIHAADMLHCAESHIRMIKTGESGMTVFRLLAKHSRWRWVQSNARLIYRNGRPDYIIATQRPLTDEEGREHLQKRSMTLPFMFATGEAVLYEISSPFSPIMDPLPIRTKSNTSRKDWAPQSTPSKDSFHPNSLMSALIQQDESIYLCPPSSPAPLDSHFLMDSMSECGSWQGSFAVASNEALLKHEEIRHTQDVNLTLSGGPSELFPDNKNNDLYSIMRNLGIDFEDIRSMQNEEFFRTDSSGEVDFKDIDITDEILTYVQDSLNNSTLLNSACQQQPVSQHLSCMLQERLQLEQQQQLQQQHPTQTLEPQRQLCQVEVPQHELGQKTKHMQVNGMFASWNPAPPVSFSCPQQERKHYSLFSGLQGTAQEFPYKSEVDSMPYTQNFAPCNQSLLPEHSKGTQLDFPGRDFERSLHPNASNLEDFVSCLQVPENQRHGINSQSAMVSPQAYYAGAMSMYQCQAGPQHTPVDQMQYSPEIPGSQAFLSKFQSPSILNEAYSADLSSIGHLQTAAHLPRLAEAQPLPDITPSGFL
Molecule,tested on,test,test system,setting,how to read,measurement,value
OCc1ccccc1,alcohol dehydrogenase 2 Saccharomyces cerevisiae,"enzyme activity, substrate",,,,kcat/Km,38 M⁻¹ s⁻¹
EDVVLVRI,Mamu-B*01 macaque,peptide-MHC binding,peptide,,,IC50,14.2 nM
c1ccc2cc3cc4ccccc4cc3cc2c1,Ahr,,,50% effect level,baseline: benzo[a]pyrene,relative potency,11
FLGKIWSS,"HLA class I histocompatibility antigen, A alpha chain, allele A*69:01 (Homo sapiens, UniProt P04439)",peptide-MHC binding,peptide,,,IC50,> 5000 nM
CO[C@@H](C)Cn1c(=O)n(C)c2cnc3ccc(-c4cncc(C(C)(C)O)c4)cc3c21,,,Japanese cancer patients,,,maximum tolerated dose,200 mg twice daily
c1ccc2c3c(ccc2c1)-c1cccc2cccc-3c12,Ahr,,,50% effect level,baseline: benzo[a]pyrene,relative potency,1.7
CCN1CCN(Cc2ccc(Nc3ncc(F)c(-c4cc(F)c5nc(C)n(C(C)C)c5c4)n3)nc2)CC1,,,human,,,maximum tolerated dose,200 mg twice daily
VDFLEENI,Mamu-B*01 macaque,peptide-MHC binding,peptide,,,IC50,19.2 nM

# Excerpt of the above:
Molecule,tested on,test,test system,setting,how to read,measurement,value
EDVVLVRI,Mamu-B*01 macaque,peptide-MHC binding,peptide,,,IC50,14.2 nM
